Measured values from different studies.
Each numbered part is a random draw from the data of one study; scales do not carry over between parts. Changes are numbered by the printed parent chain.

Study 1
Target: Prothrombin, mature alpha-thrombin (F2, Homo sapiens, UniProt P00734)
Method: aptamer microarray, sandwich
Molecule type: DNA with 2'F-ANA
Matrix: in vitro
Concentration: 200 nM
Setting: whole 15-mer aptamer, many near background
Together with: Cy3 exosite-II aptamer, 400 nM
Direction: higher = stronger binding
Strand: GGTTGGTGTGGTTGG
Modification	mean fluorescence intensity
2'F-ANA at 1 2 3 4 7 8 9 10 11 12 13 15	61.3 a.u.
2'F-ANA at 1 2 10 12 13	105 a.u.
2'F-ANA at 1 2 6 8 9 11 13 14	49.5 a.u.
2'F-ANA at 3 6 7 8 9 10 15	517 a.u.
2'F-ANA at 3 4 6 7 9 12 14	290 a.u.
2'F-ANA at 1 3 7 8 10 12 13 14	72.8 a.u.
2'F-ANA at 4 5 6 8 11 12 13	78.6 a.u.
2'F-ANA at 1 2 4 5 6 7 10 13 15	50.3 a.u.
2'F-ANA at 5 6 7 8 11 12 13	114 a.u.
2'F-ANA at 1 6 7 8 9 14	61.3 a.u.
2'F-ANA at 2 3 4 9 10 13	241 a.u.
2'F-ANA at 4 6 8 10 11 13	61.6 a.u.
2'F-ANA at 2 4 6 9 11 12 13 14 15	78.1 a.u.
2'F-ANA at 3 7 9 10 12 14 15	432 a.u.
2'F-ANA at 3 7 11 12 13	1240 a.u.
2'F-ANA at 2 3 4 5 6 8 10 11 12	56.1 a.u.
2'F-ANA at 1 2 4 7 9 10 13	43.5 a.u.
2'F-ANA at 3 6 7 8 9 10 12 13 14	440 a.u.

Study 2
Target: Histone acetyltransferase KAT6A, both winged helices, GST fusion (KAT6A, Homo sapiens, UniProt Q92794, residues 1-181)
Method: protein binding microarray
Molecule type: double-stranded DNA, one strand shown
Matrix: in vitro
Concentration: not given
Setting: 8-mer, flanks averaged, mean of 2 arrays, mostly near background
Relative to: not given
Direction: higher = stronger binding
Construct (chain): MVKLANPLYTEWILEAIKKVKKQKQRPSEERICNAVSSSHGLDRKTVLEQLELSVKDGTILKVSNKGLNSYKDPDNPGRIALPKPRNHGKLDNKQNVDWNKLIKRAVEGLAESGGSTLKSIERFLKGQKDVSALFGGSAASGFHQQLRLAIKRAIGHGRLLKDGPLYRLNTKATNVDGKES
Strand	E-score
ACGAGTTA	-0.116
GGTGAGAA	-0.101
AAGGCGGG	0.17
GTACACCA	-0.164
ATGTACGC	0.0958
CTTAAAGA	-0.083
AGAATCAC	0.0874
AGACGGTA	0.132
GGACGTCC	0.0188
CAGGCATA	-0.114
TTCTACAA	-0.00861
CACTAAGC	-0.187
CTCCACAA	-0.177
ACAGTCCG	0.0819
GGTCCTAC	-0.136
ATCCATCC	-0.0768

Study 3
Target: Centromere-binding protein 1, full length, His-tagged (CBF1, Saccharomyces cerevisiae, UniProt P17106, residues 1-351)
Chain of UniProt P17106 (whole entry, looked up): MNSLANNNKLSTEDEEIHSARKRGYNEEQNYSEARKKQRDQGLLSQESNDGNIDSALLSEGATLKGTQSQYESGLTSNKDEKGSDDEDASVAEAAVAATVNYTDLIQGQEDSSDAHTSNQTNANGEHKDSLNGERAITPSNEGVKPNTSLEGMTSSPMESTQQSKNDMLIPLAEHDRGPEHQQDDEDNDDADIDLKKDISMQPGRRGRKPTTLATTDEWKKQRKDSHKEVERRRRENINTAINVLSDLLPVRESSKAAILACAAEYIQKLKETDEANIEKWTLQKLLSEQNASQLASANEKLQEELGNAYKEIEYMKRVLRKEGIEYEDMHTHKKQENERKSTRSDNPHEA
Method: competition protein-binding microarray
Molecule type: double-stranded DNA, one strand shown
Matrix: in vitro
Concentration: 2 µM
Setting: whole 60-bp probe, lowest competitor level
Together with: Pho4 competitor, 0.05 µM
Direction: higher = stronger binding
Strand	fluorescence intensity [a.u.]
TATGAATGCAACGGCCACGTGGGTAGAATGGGAGGAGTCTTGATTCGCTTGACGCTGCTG	1100
AATTTTGGAGCTTGACATGTGGCCTCAATTGCATAAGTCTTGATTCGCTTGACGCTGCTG	153
AATAGGCGCCAAGTTTCCGTGGGTAACTATGACTTTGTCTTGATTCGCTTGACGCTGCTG	68.7
GCCAAAATGCACTGTCACACGCTAAAGTGCTCGAATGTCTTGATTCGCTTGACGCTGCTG	79.4
GAATTCTGTGCACTTGCCGTGATGGTGTTCGTTACAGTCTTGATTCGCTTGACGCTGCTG	89.2
CATCGGCCCATTTGGCACACGCCAGTTAGTGAGGTTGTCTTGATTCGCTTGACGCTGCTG	62.8
TCTCCCTCACTGCATCCCGTGACGGGTTTCTTAGCAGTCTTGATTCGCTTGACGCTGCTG	660
CATACCCAACCTTGCGCAGTGGGTGAAGATATTTGTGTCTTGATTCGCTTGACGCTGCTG	76.3
AAAATGTTAGCCCATCACGATGGAAACTTAACTGCTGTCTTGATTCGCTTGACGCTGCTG	97.3
CTTCTGTAAATTTGGCAAGTGGGTGGACGCGCCCCGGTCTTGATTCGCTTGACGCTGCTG	82.3
CATACCCAACCTTGAAATGTGGGTGAAGATATTTGTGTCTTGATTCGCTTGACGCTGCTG	69.2
CATACCCAACCTTGCTCGGTGGGTGAAGATATTTGTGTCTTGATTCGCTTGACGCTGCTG	58.8
CATACCCAACCTTGAGCTGTGGGTGAAGATATTTGTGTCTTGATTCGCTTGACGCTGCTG	61.5
CGGGGTTAAGTTTGGTCGGTGGGTGGCTTGCAGCAGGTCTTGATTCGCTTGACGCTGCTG	66.8
CGCTGTTACTTCTCGCGCGTGATGGGGTCAGCGAAGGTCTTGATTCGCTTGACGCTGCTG	140
AGCCAACGTTACGACCACGATGCCTATGAACACCATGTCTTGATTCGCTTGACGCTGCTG	87.3
CTAACGAAGGTTTGTGAGGTGGGTGACAAGCCAAGTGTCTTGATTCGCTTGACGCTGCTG	68

Study 4
Target: RNA binding protein fox-1 homolog 2, RRM domain, GST-SBP tag (RBFOX2, Homo sapiens, UniProt O43251-10, residues 100-194)
Method: RNA Bind-n-Seq
Molecule type: RNA
Matrix: in vitro
Concentration: 365 nM
Setting: natural RNA segment, single round, ends assumed
Relative to: no-protein control
Direction: higher = stronger binding
Residues (chain): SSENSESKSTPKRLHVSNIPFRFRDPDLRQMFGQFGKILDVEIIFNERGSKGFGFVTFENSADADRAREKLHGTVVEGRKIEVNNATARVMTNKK
Strand	RBNS enrichment (R)
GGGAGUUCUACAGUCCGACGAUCUUCACUGGUUUAUCUACAGAAAUUUCUCUGGGCCUUUUUUUCUGUGUUUGAUUCAACACUGCACUAAGGGGGAAAUGUUCCAUUGAAUAAAAGAGCAGUGUGGUUUUCCGUGGAAUUCUCGGGUGCCAA	0.461
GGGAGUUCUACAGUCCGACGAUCUUGAGACUGAAGGUUCUUUAAAGACCGUAAGGAUGGCUUCCGACGUGUCAUGCUGCUGCUGUGAUCUUCAGCCUGCCUUGCCUGGAAACAUGGCAAAGACAAUGCUGACAUGGAAUUCUCGGGUGCCAA	0.303
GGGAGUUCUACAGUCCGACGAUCGUCCAUUCUAAACGCAGUUGCCAGUCUCAUCACUUCAGGUCCUUACGGGCAGGCUCUAGCAACUUUCCGUGUAUGGACCUCGUUUUUUGCUGUUUUGUGUUUAAUUAGUAUGGAAUUCUCGGGUGCCAA	0.303
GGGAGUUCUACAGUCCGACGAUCCCUCCCUCCUCAUCUUGCCGUCCCACUGGGGUGCUAGGAAAUCCAGGAUGACGGCUGCUCUGAUAUGGUGCUCUUCUGAGGUGGCAUAAGGGCUGGCCCUUAUUUGCUCUUGGAAUUCUCGGGUGCCAA	0.679
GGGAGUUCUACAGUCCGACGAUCCCAGCGAGCUGUAGGCCAUGUCACAGAACCGAGGCAGAGCAGUGCUUUGAGUAGGACAACAAGGAACAUUAAAGAAGGAAAGUUCUAGAACAAUCUUUUGCUAAAAAAAAUGGAAUUCUCGGGUGCCAA	0.458
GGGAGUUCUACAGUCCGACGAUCCAGUGGAGGGUUUUUAUUUUUAUUUUUUUAAAAGUUUAGGUGCCUUUGCGGAUGACCUCAUUUUGAUGUUAAAAAAAAACUGAUUUUUUUAAUAUGUGGACGCUGCAAAAUGGAAUUCUCGGGUGCCAA	0.701
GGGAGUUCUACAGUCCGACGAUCAAAAAAUAGAAAUAAAACAAUCUCCCUCCAUAAUGUGAGCAAUAUUACCUCGUGCAUUGUAUAAUUUGAUGUAAAAGAAAUAGUUACCAAUGCUAGCUUGUGUGGUCUUCUGGAAUUCUCGGGUGCCAA	0.516
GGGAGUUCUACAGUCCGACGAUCCCACCCCGCAAGUCACAGGCAUUCCUUUGACAGCCCCCUUCACCGCCCCUCAAAUACAGACAUCUGCUUUCAUGUGGAGACUGUCUCCAGGCCUUAUUGAGACCAGACCCUGGAAUUCUCGGGUGCCAA	0.471
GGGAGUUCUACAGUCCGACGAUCUUCUUAACCUGGCUUAAAUCACCUUCAUUUUUCCAGUCAUCCUUAGAGCCGUCACCCUGUGUGAAGGUGCCUUACUUUGUAGGACAGGAUGUGGAUGUCAGUUUGUACAAUGGAAUUCUCGGGUGCCAA	0.278
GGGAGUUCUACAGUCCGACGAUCCAAAGCUCCUCUUGGGGAAAUGGCAAGUCUUUAGGAUAGGCAAGACCCUGUAUGAAUAGUACCAAAGCAUUACCGCAUGGUAGAGAACACACUCGAUUAAAAAUGUUAAGUGGAAUUCUCGGGUGCCAA	0.647
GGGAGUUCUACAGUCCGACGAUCGUACCCGCUCUGCCUCAAGCAUCCCCCACACAGGGCUCUGGUUUUCACUCGCUUCGUCCUAGAUAGUUUAAAUGGGAAUCGGAUCCCCUGGUUGAGAGCUAAGACAACCAUGGAAUUCUCGGGUGCCAA	1.27
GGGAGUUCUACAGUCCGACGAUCACAGAGUGUUGUCUACAAAGUGCAAGUGUGUUAAUGUUUAUGUAAAUUAUGCAGGUGAUAACUUUAUGGUUUGGGACUGUUUAUGGGCUCUUUUAAGUGAAUUUUCAAAUUGGAAUUCUCGGGUGCCAA	5.47

Study 5
Target: Protein max, full length (MAX, Homo sapiens, UniProt P61244-2, residues 1-151)
Method: protein-binding microarray
Molecule type: double-stranded DNA, one strand shown
Matrix: in vitro
Concentration: not given
Setting: k-mer, scored over probes, only values ≥0.25
Direction: higher = stronger binding
Strand	E-score
ACGTGGTA	0.45
CACACGTA	0.252
CCCACGCA	0.313
CACGGGGA	0.361
CATGTGCA	0.474
GGCGGGGA	0.3
ACGTGAGA	0.38
CCCACCCC	0.352
ACGTGCGG	0.417
CGTGTCGC	0.341
CGGCACAC	0.254
CATATGCG	0.368
CACGCAGC	0.35
AGGCCACG	0.337
CGTGCTGC	0.405
CGTGCGAC	0.319
CATGCTTC	0.447
CACGTTGC	0.464
ATCCATGC	0.339
AACACGAT	0.283
CACGCATC	0.345

Study 6
Target: CCNB3, cyclin fold, Cln2 fusion (human)
Method: yeast growth competition, sequencing
Matrix: yeast
Setting: strong parent motif
Relative to: not given
Direction: higher = stronger binding
Parent: SCAPER docking peptide (human); SNARRSLNFGGST
Variant	normalised enrichment score
SNAERSLNFGGST [R4E]	-0.115
SNARRSYNFGGST [L7Y]	0.0635
SNADRSLNFGGST [R4D]	0.294
SNARRFLNFGGST [S6F]	0.872
ENARRSLNFGGST [S1E]	1.01
SNARRSLWFGGST [N8W]	1
SNRRRSLNFGGST [A3R]	-0.266
SNARRSLNFGCST [G11C]	1.22
SNARMSLNFGGST [R5M]	0.534
SNARRSLNFGGRT [S12R]	0.327
SNDRRSLNFGGST [A3D]	0.0925
SNARRSHNFGGST [L7H]	0.345
SNARRSDNFGGST [L7D]	0.745
WNARRSLNFGGST [S1W]	2.79
SNARRSLNIGGST [F9I]	0.266
SQARRSLNFGGST [N2Q]	1.32
SNARRGLNFGGST [S6G]	0.351
SNARRSLNFGGKT [S12K]	1.38
SNARRSLNFYGST [G10Y]	0.911
SNARRSLNFGGSH [T13H]	1.2
SNAIRSLNFGGST [R4I]	0.698
SNARRSLEFGGST [N8E]	1.07
SNARRSLNFGGGT [S12G]	1.48
SNATRSLNFGGST [R4T]	0.553
SNARRILNFGGST [S6I]	1.79

Study 7
Target: TAR DNA-binding protein 43, full length, His tag (TARDBP, Homo sapiens, UniProt Q13148, residues 1-414)
Method: RNA Bind-n-Seq
Molecule type: RNA
Matrix: in vitro
Concentration: 20 nM
Setting: 6-mer, flanks averaged, single round
Together with: 150 mM LiCl
Relative to: input library
Direction: higher = stronger binding
Strand	6-mer enrichment (R)
CACGCU	0.875
CUUAGC	0.883
CAACCG	0.79
CCCUGG	1.03
GUGAAC	0.992
AAAAGU	0.896
UCUUCA	0.86
GAAUCU	0.838
UCGUCU	0.937
ACAGAA	0.833
UCGUUU	1.02
GUAAUA	0.944
GCGAUA	0.896
ACUGUU	0.992
GCAGAU	0.898
UCGACU	0.837
